{"data": "Published values from different studies", "note": "Numbers after ± are the reported error."}
{"Compound": "N#Cc1cc(C(=O)OCC[18F])c(C(F)(F)F)nc1N1CCN(C(=O)Cc2ccccc2)CC1", "test": "dynamic PET", "test system": "human, epileptic focus", "conditions": "intravenous", "measurement": "peak SUV", "result": "2.5 ± 1.58"}
{"Compound": "CC[C@H](C)[C@H](NC(=O)[C@H](Cc1ccccc1)NC(=O)[C@H](CCCN)NC(=O)[C@H](CCCNC(=N)N)NC(=O)[C@H](Cc1ccccc1)NC(=O)[C@H](Cc1ccccc1)NC(=O)[C@H](CCCCN)NC(=O)[C@H](CO)NC(=O)[C@H](CC(C)C)NC(=O)[C@H](CCCNC(=N)N)NC(=O)[C@H](CCSC)NC(=O)[C@H](C)N)C(=O)N[C@@H](CC(C)C)C(=O)N[C@@H](CCCN)C(=O)N[C@@H](CCCNC(=N)N)C(=O)N[C@@H](CCCCN)C(=O)N[C@@H](CCCCN)C(=O)O", "test": "circular dichroism", "test system": "20% TFE in PBS", "conditions": "200 µM, pH 7.4, 25 °C", "measurement": "helicity", "result": "15.7%"}
{"Compound": "CCC(=O)N[C@@H](C)C(=O)OCC(=O)N[C@@H](C)C(=O)O", "test system": "water", "conditions": "pH 3, 37 °C", "measurement": "depolymerization half-life", "result": "1300 h"}
{"Compound": "C=C(c1ncc(C(=O)O)cn1)c1cc2c(cc1C)C(C)(C)CCC2(C)C", "test system": "Sprague-Dawley rat, male", "conditions": "oral, 100 mg/kg, 9 h, sesame oil vehicle", "measurement": "blood triglycerides", "result": "290 ± 313 mg/dL"}
{"Compound": "[11CH3]c1ccc2nc(C3CCC3)n(-c3ccc4[nH]ncc4c3)c2n1", "test system": "human female, pancreas", "measurement": "absorbed radiation dose", "result": "3.7 µSv/MBq"}
{"Compound": "Cn1ccc(-c2cc(Cl)c(Cl)c3[nH]c4c(c23)CN(C(=O)CO)CC4)n1", "test system": "male C57BL/6 cGAS I309T mice, concanavalin A, spleen", "conditions": "oral, 100 mg/kg, 16 h after concanavalin A", "measurement": "cGAMP concentration", "result": "11.9 µM"}
{"Compound": "COc1ccc(/C=C/C2=[N+]3C(=C(CO)c4c(C)cc(/C=C/c5ccc(OC)cc5)n4[B-]3(C)C)C(C)=C2)cc1", "test system": "DMSO/methanol 1:1", "conditions": "1 h, added: 645 nm light, 9.00 J/cm2", "measurement": "photostability", "result": "unstable"}
{"Compound": "NC(=S)N/N=C/c1ccccc1O", "test": "cyclic voltammetry", "test system": "DMF", "conditions": "Cu2+ complex", "measurement": "peak current ratio ipa/ipc", "result": 0.19}
{"Compound": "CC(C)[C@H](NC(=O)[C@@H]1CCCN1C(=O)[C@H](CCCNC(=N)N)NC(=O)[C@H](CS)NC(=O)[C@H](Cc1c[nH]c2ccccc12)NC(=O)[C@H](CCCNC(=N)N)NC(=O)[C@@H](Cc1ccccc1)NC(=O)[C@H](Cc1c[nH]cn1)NC(=O)[C@H](CCC(=O)O)NC(=O)[C@H](CS)NC(=O)[C@H](CS)NC(=O)[C@@H]1CC(=O)N[C@@H](CCCNC(=N)N)C(=O)NCC(=O)N[C@@H](CC(=O)O)C(=O)N[C@H](Cc2ccc(O)cc2)C(=O)N1)C(N)=O [technetium-99m labelled]", "test system": "C57 mouse, female, B16/F1 melanoma", "conditions": "intravenous, 0.037 MBq, 2 h", "how to read": "baseline: tumour over kidneys", "measurement": "tumour to tissue ratio", "result": 0.68}
{"Compound": "CC[C@@H](C)[C@@H](NC(=O)[C@@H](C)NC(=O)[C@@H](CCCCN)NC(=O)[C@@H](CC(C)C)NC(=O)[C@@H](CC(C)C)NC(=O)[C@H](NC(=O)[C@@H](CCCCN)NC(=O)[C@@H](CC(C)C)NC(=O)[C@@H](CCCCN)NC(=O)[C@@H](CCCCN)NC(=O)[C@@H](CCCCN)NC(=O)[C@@H](CCCCN)NC(=O)[C@@H](C)NC(=O)[C@@H](CCCCN)NC(=O)[C@@H](CO)NC(=O)[C@@H](Cc1ccccc1)NC(=O)[C@H](NC(=O)[C@@H](CCCCN)NC(=O)[C@@H](CC(C)C)NC(=O)[C@@H](Cc1ccccc1)NC(=O)[C@@H](CO)NC(=O)[C@@H](CCCCN)NC(=O)[C@@H](Cc1c[nH]c2ccccc12)NC(=O)[C@@H](CCCCN)NC(C)=O)[C@H](C)O)[C@H](C)O)C(=O)N[C@H](CO)C(=O)N[C@H](CCCCN)C(N)=O", "test": "RP-HPLC temperature profiling", "conditions": "pH 2, 5-80 °C, unit not given", "how to read": "baseline: control peptide", "measurement": "self-association parameter", "result": 3.07}
{"Compound": "CC[C@H](C)[C@@H]1NC(=O)[C@H](Cc2ccccc2)NC(=O)[C@@H](NC(=O)[C@H](CCCNC(=N)N)NC(=O)[C@H](Cc2ccccc2)NC(=O)[C@H](Cc2ccccc2)NC(=O)[C@H](CCCCN)NC(=O)[C@H](CO)NC(=O)[C@H](CC(C)C)NC(=O)[C@H](CCCNC(=N)N)NC(=O)[C@H](CCSC)NC(=O)[C@H](C)N)CCCNC(=O)NCC[C@@H](C(=O)N[C@@H](CCCNC(=N)N)C(=O)N[C@@H](CCCCN)C(=O)N[C@@H](CCCCN)C(=O)O)NC(=O)[C@H](CC(C)C)NC1=O", "test": "circular dichroism", "test system": "20% TFE in PBS", "conditions": "200 µM, pH 7.4, 25 °C", "measurement": "helicity", "result": "12.6%"}
{"Compound": "NCCCC[C@H](NC(=O)[C@H](Cc1ccc(O)cc1)NC(=O)[C@H](CCCCN)NC(=O)[C@H](Cc1c[nH]c2ccccc12)NC(=O)[C@H](Cc1ccccc1)NC(=O)[C@H](Cc1ccccc1)NC(=O)Cc1ccc(-c2ccccc2)cc1)C(=O)NCC(=O)N[C@@H](Cc1c[nH]cn1)C(=O)N1CCC[C@H]1C(=O)NCC(=O)NCC(=O)N1CCC[C@H]1C(=O)N[C@@H](CCC(N)=O)C(=O)N[C@@H](CC(=O)O)C(=O)N[C@@H](CC(=O)O)C(=O)N[C@@H](CC(=O)O)C(=O)N[C@@H](CC(=O)O)C(=O)N[C@@H](CC(=O)O)C(=O)N[C@@H](CC(=O)O)C(=O)O", "test": "Zetasizer", "conditions": "64 µM, self-assembled peptide", "measurement": "zeta potential", "result": "-32.8 mV"}
{"Compound": "COc1ccc2cc(-c3ccc(-c4ccc(C)cn4)nc3)oc2c1", "test": "TCSPC", "test system": "MeCN", "measurement": "radiative decay rate constant", "result": "0.49 ns⁻¹"}
{"Compound": "Oc1ccc2ccccc2c1/N=N/c1ccc(/N=N/c2ccccc2)cc1", "test system": "extracted rat blood QC samples", "conditions": "0.2 µg/L, 4 h, room temperature, short-term stability", "measurement": "measured concentration", "result": "0.203 µg/L"}
{"Compound": "CN1/C(=C/C=C/c2cc(-c3ccccc3)cc(-c3ccccc3)[o+]2)C(C)(C)c2ccccc21", "test system": "male CD-1 mouse, plasma", "conditions": "intravenous, 1 mg/kg, single dose", "measurement": "MRT", "result": "0.226 h"}
{"Compound": "COC(=O)c1ccc2c(c1)NC(=O)/C2=C(\\Nc1ccc2c(c1)CCN2C(=O)CN1CCOCC1)c1ccccc1", "test system": "cynomolgus monkey, plasma", "conditions": "intravenous, 2 mg/kg", "measurement": "clearance", "result": "8.17 mL/min/kg"}
{"Compound": "[99Tc+].[C-]#[N+]CC(C)(C)OC.[C-]#[N+]CC(C)(C)OC.[C-]#[N+]CC(C)(C)OC.[C-]#[N+]CC(C)(C)OC.[C-]#[N+]CC(C)(C)OC.[C-]#[N+]CC(C)(C)OC", "test system": "suspended hepatocytes, rat", "conditions": "up to 60 min", "measurement": "linear uptake range", "result": "2.5 min"}
{"Compound": "OC1(C(F)(F)F)CCN(c2nc(Nc3ccnc(C(F)(F)F)c3)nc(-c3cccc(C(F)(F)F)n3)n2)C1 (stereo not shown)", "test system": "monkey, blood", "conditions": "oral, 1 mg/kg", "measurement": "oral bioavailability", "result": "69.5%"}
{"Compound": "CC(C)(Sc1ccncc1-c1ccc(C#N)c2ccccc12)C(=O)OC1OC(C(=O)O)C(O)C(O)C1O (stereo not shown)", "test system": "adult men, plasma", "conditions": "oral, 15 mg verinurad, severe renal impairment", "how to read": "baseline: impaired over normal renal function", "measurement": "Cmax ratio", "result": "353%"}
{"Compound": "CC(C)[C@H](NC(=O)CNC(=O)[C@H](CCC(N)=O)NC(=O)[C@H](C)N)C(=O)O", "test": "LC-MS/MS", "test system": "human, plasma", "conditions": "intravenous, 10 mg/kg three times daily, day 3, first dose, geometric mean", "measurement": "volume of distribution", "result": "4 L/kg"}
{"Compound": "COC(=O)C(c1ccccc1Cl)N1CCC(SCC(=O)c2cccc(OC)c2)C(=CC(=O)O)C1 (mixture of isomers)", "test": "HPLC-MS/MS", "test system": "feline citrate plasma", "conditions": "100 ng/mL, 24 h, -20 °C, storage stability", "measurement": "deviation from nominal", "result": "-9%"}
{"Compound": "N=C(N)NCCC[C@@H]1NC(=O)[C@H](Cc2c[nH]c3ccccc23)NC(=O)[C@@H](CC2CCCCC2)NC(=O)[C@@H]2CCCN2C(=O)[C@@H](NC(=O)CCc2ccccc2)CCCNC1=O", "test system": "C57BL/6J mouse, plasma plasma", "conditions": "intravenous, 1 mg/kg single dose", "measurement": "MRT(0-inf)", "result": "0.617 h"}
{"Compound": "CC1(C)C(/C=C/C2=C(Cl)C(=C/C=C3/N(CCCCCC(=O)O)c4ccccc4C3(C)C)/C[N+](C)(C)C2)=[N+](CCCCCC(=O)O)c2ccccc21", "test system": "10 mM PBS", "conditions": "20 µM, pH 7.4, 750 nm LED light", "measurement": "photostability", "result": "stable"}
{"Compound": "CCCC(CCC)NC(=O)c1ccc(OC2OC(C(=O)O)C(O)C(O)C2O)c(O)c1 (stereo not shown)", "test system": "female Sprague-Dawley rat, plasma", "conditions": "oral, 50 mg/kg of parent drug", "measurement": "Tmax", "result": "4.3 h"}
{"Compound": "OCc1cn(Cc2ccc(-c3noc(-c4ccc(OCC[18F])c(C(F)(F)F)c4)n3)cc2)nn1", "test system": "female Lewis rat, thymus", "conditions": "intravenous, 30 min", "measurement": "tissue uptake", "result": "0.83 ± 0.07 %ID/g"}
{"Compound": "COc1cc(F)c(C(C)C)cc1C1=C(CN2C(=O)O[C@H](c3cc(C(F)(F)F)cc(C(F)(F)F)c3)[C@@H]2C)CC(C)(C)CC1", "test": "non-compartmental analysis", "test system": "healthy male subjects, plasma", "conditions": "oral, 50 mg single dose", "measurement": "Vd/F per body weight", "result": "38.7 L/kg"}
{"Compound": "CC(=O)N[C@@H](CC(N)=O)C(=O)NCC(=O)N[C@@H](C)C(=O)N[C@@H](C)C(N)=O", "test": "1H NMR", "test system": "sodium phosphate buffer 50 mM", "conditions": "pH 5.1, 55 °C", "measurement": "half-life of Asn form", "result": "203 h"}
{"Compound": "C[C@H]1NSc2nc(=O)c3[nH]ccc3n2Cc2ccc(Cl)cc21", "test system": "dog, both sexes, plasma", "conditions": "oral, 100 mg/kg/day", "how to read": "baseline: dog over human 15 mg", "measurement": "exposure ratio", "result": 10}
